Assay results from different studies.
A part holds a random share of what one study measured. Values joined by “and” are separate records of one study, mostly repeats; a detail may differ.
Sequence of UniProt O96017 (whole entry, looked up): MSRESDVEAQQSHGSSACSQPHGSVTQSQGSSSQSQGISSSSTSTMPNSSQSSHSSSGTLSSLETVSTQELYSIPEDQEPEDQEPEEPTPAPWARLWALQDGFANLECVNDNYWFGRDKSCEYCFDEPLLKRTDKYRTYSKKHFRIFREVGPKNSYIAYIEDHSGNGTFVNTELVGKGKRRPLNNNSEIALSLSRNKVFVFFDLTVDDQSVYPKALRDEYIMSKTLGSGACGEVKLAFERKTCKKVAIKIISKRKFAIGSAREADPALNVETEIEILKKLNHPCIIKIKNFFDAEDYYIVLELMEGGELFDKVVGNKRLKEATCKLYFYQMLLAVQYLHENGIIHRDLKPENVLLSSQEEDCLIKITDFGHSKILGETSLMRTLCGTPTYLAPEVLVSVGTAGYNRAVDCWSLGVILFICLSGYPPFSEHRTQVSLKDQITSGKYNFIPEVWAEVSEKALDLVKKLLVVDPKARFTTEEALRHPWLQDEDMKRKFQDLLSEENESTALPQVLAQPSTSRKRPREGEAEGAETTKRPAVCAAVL
Sequence of UniProt Q9UIK4 (whole entry, looked up): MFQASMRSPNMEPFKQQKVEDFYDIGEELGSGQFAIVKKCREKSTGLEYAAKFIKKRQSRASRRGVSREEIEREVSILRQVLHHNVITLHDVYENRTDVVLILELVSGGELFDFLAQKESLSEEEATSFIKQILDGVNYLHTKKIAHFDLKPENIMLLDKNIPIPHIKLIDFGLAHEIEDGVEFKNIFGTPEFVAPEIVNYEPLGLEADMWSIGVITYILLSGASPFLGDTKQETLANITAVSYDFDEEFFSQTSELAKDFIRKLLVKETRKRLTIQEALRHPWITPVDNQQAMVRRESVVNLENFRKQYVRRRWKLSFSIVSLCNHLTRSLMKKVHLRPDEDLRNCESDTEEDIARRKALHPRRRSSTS
Sequence of UniProt Q99759 (whole entry, looked up): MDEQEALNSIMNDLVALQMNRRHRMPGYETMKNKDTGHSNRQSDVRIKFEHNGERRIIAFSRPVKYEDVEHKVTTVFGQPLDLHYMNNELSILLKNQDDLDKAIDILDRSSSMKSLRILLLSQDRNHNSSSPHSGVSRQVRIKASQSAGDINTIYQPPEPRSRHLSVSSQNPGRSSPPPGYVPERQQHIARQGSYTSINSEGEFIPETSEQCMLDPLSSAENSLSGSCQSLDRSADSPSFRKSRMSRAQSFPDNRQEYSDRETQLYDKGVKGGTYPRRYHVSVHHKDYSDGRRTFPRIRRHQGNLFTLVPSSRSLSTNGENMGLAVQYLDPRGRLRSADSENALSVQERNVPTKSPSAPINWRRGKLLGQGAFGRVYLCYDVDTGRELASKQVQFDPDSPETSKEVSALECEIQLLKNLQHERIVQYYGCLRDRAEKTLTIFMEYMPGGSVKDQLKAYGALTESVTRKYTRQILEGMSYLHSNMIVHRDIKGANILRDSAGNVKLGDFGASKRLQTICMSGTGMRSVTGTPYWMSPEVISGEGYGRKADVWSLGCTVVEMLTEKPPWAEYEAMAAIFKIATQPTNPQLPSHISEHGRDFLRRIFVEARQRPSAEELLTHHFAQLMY

Block 1 — organism: Cryptosporidium parvum; technique: time-kill; cell line: HCT-8; strain: nanoluciferase-expressing; direction: higher = more parasites; quantity: parasite luminescence
Compound: CNC(=O)c1ccc(-c2cnn3ccc(C(=O)N(C)c4ccc(Cl)c(C(=O)OC)c4)cc23)cc1
0.7407 µM, 4 h: 86900 RLU and 87600 RLU
0.02743 µM, 8 h: 80600 RLU and 96400 RLU
0.00305 µM, 72 h: 161000 RLU and 193000 RLU
0.00305 µM, 24 h: 204000 RLU and 260000 RLU
0.02743 µM, 4 h: 79300 RLU and 99100 RLU
0.00305 µM, 4 h: 72000 RLU and 96100 RLU
0.2469 µM, 4 h: 78900 RLU and 75800 RLU
2.222 µM, 48 h: 23900 RLU and 26800 RLU
20 µM, 72 h: 21600 RLU and 17700 RLU
0.7407 µM, 8 h: 105000 RLU and 106000 RLU
6.667 µM, 48 h: 28100 RLU and 32400 RLU

Block 2 — effect on: enzyme activity; action: inhibitor; concentration: 77 µM; quantity: remaining activity
Target: DNA polymerase theta, ATPase domain (POLQ, Homo sapiens, UniProt O75417)
Sequence of UniProt O75417 (whole entry, unmodified, looked up): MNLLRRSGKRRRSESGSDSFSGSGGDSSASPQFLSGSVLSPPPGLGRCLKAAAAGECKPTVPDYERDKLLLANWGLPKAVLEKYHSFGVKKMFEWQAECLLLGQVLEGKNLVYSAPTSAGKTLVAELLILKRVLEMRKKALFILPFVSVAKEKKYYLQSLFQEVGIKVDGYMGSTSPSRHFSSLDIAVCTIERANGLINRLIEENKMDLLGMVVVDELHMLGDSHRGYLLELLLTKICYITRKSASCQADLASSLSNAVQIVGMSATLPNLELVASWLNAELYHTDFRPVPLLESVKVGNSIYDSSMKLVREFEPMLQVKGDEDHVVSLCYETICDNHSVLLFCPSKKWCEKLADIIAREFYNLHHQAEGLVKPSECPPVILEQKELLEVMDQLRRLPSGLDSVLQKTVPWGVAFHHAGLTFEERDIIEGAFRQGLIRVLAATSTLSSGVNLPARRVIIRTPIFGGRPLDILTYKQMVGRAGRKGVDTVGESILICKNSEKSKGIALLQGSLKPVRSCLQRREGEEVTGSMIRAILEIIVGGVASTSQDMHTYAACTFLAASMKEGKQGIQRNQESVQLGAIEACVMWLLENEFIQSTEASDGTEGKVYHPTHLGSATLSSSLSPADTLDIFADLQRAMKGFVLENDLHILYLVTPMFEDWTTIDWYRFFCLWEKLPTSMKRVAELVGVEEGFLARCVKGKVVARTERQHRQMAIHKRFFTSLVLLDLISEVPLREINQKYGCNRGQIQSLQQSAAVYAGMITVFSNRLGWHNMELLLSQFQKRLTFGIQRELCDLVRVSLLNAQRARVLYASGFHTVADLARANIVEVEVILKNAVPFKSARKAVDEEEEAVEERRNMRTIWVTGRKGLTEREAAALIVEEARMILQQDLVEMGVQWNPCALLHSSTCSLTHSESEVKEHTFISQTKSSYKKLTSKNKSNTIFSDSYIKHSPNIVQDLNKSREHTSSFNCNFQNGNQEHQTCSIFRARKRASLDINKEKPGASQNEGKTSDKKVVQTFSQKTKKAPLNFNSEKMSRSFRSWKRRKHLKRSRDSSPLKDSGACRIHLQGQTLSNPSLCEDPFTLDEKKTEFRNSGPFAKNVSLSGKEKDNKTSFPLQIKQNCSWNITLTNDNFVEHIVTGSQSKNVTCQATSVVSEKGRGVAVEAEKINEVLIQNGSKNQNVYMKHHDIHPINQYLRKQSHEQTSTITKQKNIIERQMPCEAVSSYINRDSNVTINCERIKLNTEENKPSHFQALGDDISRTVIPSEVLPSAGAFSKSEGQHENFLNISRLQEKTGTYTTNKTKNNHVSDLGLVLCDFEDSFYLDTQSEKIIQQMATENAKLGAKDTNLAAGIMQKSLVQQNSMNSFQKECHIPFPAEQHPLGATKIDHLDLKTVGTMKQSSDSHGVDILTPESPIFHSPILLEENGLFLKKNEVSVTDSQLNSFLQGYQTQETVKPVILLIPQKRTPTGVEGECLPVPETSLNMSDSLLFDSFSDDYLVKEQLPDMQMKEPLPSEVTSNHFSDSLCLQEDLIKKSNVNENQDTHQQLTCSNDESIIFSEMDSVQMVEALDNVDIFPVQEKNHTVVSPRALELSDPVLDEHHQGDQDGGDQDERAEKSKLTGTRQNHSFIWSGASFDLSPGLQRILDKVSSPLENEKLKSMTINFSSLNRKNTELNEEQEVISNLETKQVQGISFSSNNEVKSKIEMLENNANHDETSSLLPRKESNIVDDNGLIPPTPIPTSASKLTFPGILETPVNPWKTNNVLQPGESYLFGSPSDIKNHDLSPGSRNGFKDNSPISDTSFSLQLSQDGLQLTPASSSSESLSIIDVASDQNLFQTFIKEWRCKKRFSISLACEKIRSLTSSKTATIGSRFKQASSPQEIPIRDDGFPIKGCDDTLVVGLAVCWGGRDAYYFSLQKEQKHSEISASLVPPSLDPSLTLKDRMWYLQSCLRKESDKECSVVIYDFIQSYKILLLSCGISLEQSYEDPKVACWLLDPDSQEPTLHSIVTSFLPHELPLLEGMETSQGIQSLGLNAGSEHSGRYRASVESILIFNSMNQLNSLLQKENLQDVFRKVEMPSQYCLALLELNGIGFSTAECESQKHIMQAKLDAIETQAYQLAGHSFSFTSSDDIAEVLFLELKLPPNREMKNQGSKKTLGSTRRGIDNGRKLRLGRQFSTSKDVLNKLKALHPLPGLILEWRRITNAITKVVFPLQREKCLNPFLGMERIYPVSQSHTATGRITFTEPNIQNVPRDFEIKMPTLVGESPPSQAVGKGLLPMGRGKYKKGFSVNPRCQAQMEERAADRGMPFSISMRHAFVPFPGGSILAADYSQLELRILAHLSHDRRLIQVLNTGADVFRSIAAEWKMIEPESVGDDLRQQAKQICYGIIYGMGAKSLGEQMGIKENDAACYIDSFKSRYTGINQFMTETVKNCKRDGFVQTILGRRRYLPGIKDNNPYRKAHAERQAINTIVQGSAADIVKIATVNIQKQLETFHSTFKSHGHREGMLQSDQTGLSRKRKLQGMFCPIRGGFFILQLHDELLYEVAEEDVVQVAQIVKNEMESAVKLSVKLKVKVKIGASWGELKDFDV
COc1cc(C(=O)OC2CC3CCC(C2)N3C)ccc1O (stereo not drawn): 95.3%
CN1CC[C@@]2(C)c3cc(O)ccc3N(C)[C@@H]12: 103%
COC(=O)[C@]1(O)C[C@@H]2O[C@@]1(C)n1c3ccccc3c3c4c(c5c6ccccc6n2c5c31)C(=O)NC4: 102%
COc1ccc2c(c1O)-c1c(OC)c(OC)cc3c1[C@H](C2)N(C)CC3: 102%
CN(C)C(=O)Oc1cc(OC(=O)N(C)C)cc(C(O)CNC(C)(C)C)c1 (stereo not drawn): 97.8%
COc1cc(-n2c(=S)[nH]c3ccccc3c2=O)c(Cl)cc1Cl: 95.1%
NCCc1c[nH]c2ccc(C(N)=O)cc12: 99.8%
CNCCc1ccc(O)c(O)c1: 101%
C[C@H](Cc1ccc(OCC(=O)O)cc1)NC[C@H](O)c1cccc(Cl)c1 (relative stereo): 99.5%
CCCN1CCC[C@@H]2Cc3n[nH]cc3C[C@H]21: 101%

Block 3 — effect on: enzyme activity; action: inhibitor; concentration: 0.5 µM; baseline: control; quantity: remaining activity
Structure (SMILES): COC[C@H]1OC(=O)c2coc3c2[C@@]1(C)C1=C(C3=O)[C@@H]2CCC(=O)[C@@]2(C)C[C@H]1OC(C)=O
Protein kinase C alpha type (PRKCA, Homo sapiens, UniProt P17252): 96.3%
Death-associated protein kinase 2 (DAPK2, Homo sapiens, UniProt Q9UIK4): 87.1%
Mitogen-activated protein kinase kinase kinase 3 (MAP3K3, Homo sapiens, UniProt Q99759): 108%
Calcium/calmodulin-dependent protein kinase kinase 2 (CAMKK2, Homo sapiens, UniProt Q96RR4): 79.3%
Inhibitor of nuclear factor kappa-B kinase subunit beta (IKBKB, Homo sapiens, UniProt O14920): 96.9%
Cyclin-dependent kinase 4, with cyclin D1 (CDK4, Homo sapiens, UniProt P11802): 94.8%
cAMP-dependent protein kinase catalytic subunit alpha (PRKACA, Homo sapiens, UniProt P17612): 93%
Death-associated protein kinase 1 (DAPK1, Homo sapiens, UniProt P53355): 106%
Serine/threonine-protein kinase STK11 (STK11, Homo sapiens, UniProt Q15831): 83.5%
Serine/threonine-protein kinase Chk2 (CHEK2, Homo sapiens, UniProt O96017): 95.6%
TGF-beta receptor type-1 (TGFBR1, Homo sapiens, UniProt P36897): 93.8%

Mixed results
CRK2: Cyclin-dependent kinase 2 homolog (CRK2, Plasmodium falciparum, UniProt P61075)
Sequence of UniProt P61075 (whole entry, looked up): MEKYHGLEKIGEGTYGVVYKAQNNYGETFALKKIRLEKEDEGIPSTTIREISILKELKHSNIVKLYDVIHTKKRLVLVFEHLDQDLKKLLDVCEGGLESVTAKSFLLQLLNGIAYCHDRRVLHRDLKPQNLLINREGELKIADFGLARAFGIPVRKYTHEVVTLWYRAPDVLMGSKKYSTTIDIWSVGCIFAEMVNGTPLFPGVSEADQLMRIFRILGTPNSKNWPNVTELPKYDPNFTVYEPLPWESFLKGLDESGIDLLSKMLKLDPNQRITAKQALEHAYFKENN
Cc1c(NC(=O)c2cc(C(N)=O)nc3cc(F)ccc23)c(C(F)(F)F)nn1Cc1ccc(C(C)(C)C)cc1
remaining binding (Calcium-dependent protein kinase 1 (CDPK1, Plasmodium falciparum, UniProt P62344); cell-free assay, competition with immobilised ligand; 1 µM): 100%

COc1cc(-c2cn(C3CCc4ccccc4N(CC(F)(F)F)C3=O)nn2)ccc1-n1ccc(C)n1 (stereo not drawn)
remaining binding (CRK2; cell-free assay, competition with immobilised ligand; 1 µM): 100%

Cn1nc(C(=O)NCc2ccc(C(=O)O)cc2)cc1-c1ccc2[nH]ccc2c1
Ki (D(1B) dopamine receptor (DRD5, Homo sapiens, UniProt P21918); binding, radioligand binding): > 10 µM

C[C@@]1(Cc2ccc(C#N)cc2)C(=O)N(c2cc(Cl)cc(Cl)c2)c2ncc(C(=O)NC3(c4nc(C5CCC5)no4)CC3)n21
remaining binding (CRK2; cell-free assay, competition with immobilised ligand; 1 µM): 100%

A few entries again (mixed results):
C[C@@]1(Cc2ccc(C#N)cc2)C(=O)N(c2cc(Cl)cc(Cl)c2)c2ncc(C(=O)NC3(c4nc(C5CCC5)no4)CC3)n21
remaining binding (CRK2; cell-free assay, competition with immobilised ligand; 1 µM): 100%

Cn1nc(C(=O)NCc2ccc(C(=O)O)cc2)cc1-c1ccc2[nH]ccc2c1
Ki (D(1B) dopamine receptor (DRD5, Homo sapiens, UniProt P21918); binding, radioligand binding): > 10 µM

Cc1c(NC(=O)c2cc(C(N)=O)nc3cc(F)ccc23)c(C(F)(F)F)nn1Cc1ccc(C(C)(C)C)cc1
remaining binding (Calcium-dependent protein kinase 1 (CDPK1, Plasmodium falciparum, UniProt P62344); cell-free assay, competition with immobilised ligand; 1 µM): 100%
